Published values collected from several papers.
A part holds a random share of what one study measured.
Chain of UniProt P9WI81 (whole entry, looked up): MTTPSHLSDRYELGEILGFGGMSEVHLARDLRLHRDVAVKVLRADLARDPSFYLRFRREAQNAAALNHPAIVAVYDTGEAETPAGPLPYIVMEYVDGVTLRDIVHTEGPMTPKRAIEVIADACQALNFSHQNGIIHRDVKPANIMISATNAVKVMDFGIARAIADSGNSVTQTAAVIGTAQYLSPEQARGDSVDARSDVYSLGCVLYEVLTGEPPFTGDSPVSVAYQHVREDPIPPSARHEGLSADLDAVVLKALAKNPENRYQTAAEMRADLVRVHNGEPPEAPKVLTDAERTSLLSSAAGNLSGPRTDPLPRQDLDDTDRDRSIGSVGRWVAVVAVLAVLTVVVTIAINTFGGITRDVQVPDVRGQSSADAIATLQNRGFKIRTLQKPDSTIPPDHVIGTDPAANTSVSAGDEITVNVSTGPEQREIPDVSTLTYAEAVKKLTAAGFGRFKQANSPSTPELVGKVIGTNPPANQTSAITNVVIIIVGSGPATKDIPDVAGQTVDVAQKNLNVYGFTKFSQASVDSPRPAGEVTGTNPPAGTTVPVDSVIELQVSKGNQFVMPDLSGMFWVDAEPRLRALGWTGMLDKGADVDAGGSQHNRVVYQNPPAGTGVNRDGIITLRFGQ
Chain of UniProt P61075 (whole entry, looked up): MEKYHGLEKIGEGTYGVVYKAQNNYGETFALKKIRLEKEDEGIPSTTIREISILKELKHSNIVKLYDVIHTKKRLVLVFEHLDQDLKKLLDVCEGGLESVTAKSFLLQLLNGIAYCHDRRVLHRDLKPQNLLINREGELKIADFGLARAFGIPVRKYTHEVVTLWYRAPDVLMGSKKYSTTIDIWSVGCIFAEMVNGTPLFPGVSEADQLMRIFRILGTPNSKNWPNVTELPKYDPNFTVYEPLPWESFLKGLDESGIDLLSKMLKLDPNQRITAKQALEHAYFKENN
Chain of UniProt P07948 (whole entry, looked up): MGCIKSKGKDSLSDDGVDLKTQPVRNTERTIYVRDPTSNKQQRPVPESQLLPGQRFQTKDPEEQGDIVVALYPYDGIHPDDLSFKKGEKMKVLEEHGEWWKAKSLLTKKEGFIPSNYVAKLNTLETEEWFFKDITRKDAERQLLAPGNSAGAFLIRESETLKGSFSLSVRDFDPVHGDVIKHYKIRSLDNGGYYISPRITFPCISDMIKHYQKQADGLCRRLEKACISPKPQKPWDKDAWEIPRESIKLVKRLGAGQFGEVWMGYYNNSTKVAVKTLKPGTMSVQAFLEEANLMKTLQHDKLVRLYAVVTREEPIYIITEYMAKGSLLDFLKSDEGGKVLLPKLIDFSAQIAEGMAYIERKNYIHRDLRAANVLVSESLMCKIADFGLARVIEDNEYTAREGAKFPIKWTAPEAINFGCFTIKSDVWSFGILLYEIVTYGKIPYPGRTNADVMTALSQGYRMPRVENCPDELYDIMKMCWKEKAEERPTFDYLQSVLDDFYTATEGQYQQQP
Chain of UniProt Q9UQM7 (whole entry, looked up): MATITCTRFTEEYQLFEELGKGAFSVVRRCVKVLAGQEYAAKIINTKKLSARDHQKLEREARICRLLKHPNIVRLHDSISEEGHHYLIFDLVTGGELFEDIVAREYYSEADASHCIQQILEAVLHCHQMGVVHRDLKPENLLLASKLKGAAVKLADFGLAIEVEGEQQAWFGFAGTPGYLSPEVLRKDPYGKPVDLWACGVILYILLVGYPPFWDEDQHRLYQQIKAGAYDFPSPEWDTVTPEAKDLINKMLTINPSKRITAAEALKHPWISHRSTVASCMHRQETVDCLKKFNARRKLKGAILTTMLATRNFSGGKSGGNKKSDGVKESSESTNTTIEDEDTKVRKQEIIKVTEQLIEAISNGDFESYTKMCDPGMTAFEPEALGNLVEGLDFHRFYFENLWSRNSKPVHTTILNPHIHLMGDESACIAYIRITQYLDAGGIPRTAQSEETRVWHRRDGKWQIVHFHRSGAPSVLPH

Study 1 — cell line: mouse MPNST tumor cells; technique: high-content immunofluorescence imaging; refers to: nuclear SOX9; tested at: 10 µM; time: 12 h; notes: mean of 2 replicates; reference: DMSO control; direction: higher = more nuclear SOX9
For CN[C@@H]1Cc2cccc3[nH]c(=O)n(c23)C1, “nuclear SOX9 intensity” read 95 % of DMSO.
COc1cc2c(cc1O)C(CCc1ccc(Cl)cc1)N(C)CC2 (stereo not drawn) — result for “nuclear SOX9 intensity”: 142 % of DMSO.
Cc1cc(Cl)ccc1OCCNC(=O)c1cccs1: “nuclear SOX9 intensity” 111 % of DMSO.
CCOC(=O)Nc1ccc(NCc2c(C)cc(C)cc2C)cc1N: “nuclear SOX9 intensity” 180 % of DMSO.

Further values, each from its own experiment
For Cn1nc(C(F)(F)F)cc1-c1cnc(N2CCc3cc(S(=O)(=O)Nc4c(F)cc(Cl)cc4F)cc(N4CCCC4=O)c32)nc1, the remaining binding was 100% (pknB (Mycobacterium tuberculosis, UniProt P9WI81); cell-free assay, competition with immobilised ligand; 1 µM).
O=c1c2c(Cl)cccc2nc([C@@H]2CCCN2)n1-c1cccnc1 has a remaining compound of > 99.9% (human, microsomes or S9; 2 µM, 0.5 h).
With Cc1cc(NC(=O)c2cccc(S(F)(F)(F)(F)F)c2)cc(-n2ccn3nc(-c4cccnc4)cc23)c1 the EC50 was > 50 µM (LYN (Homo sapiens, UniProt P07948); target engagement in cells, BRET).
With NCC(CC(=O)O)c1ccc(Cl)cc1 (stereo not drawn) the inhibition was -4% (CAMK2A (Homo sapiens, UniProt Q9UQM7); enzyme activity, inhibitor; 10 µM).
C[C@@H]1CN(c2cc(-c3nn(C)c4ccc(OC5(C)CC5)cc34)ncn2)C[C@H](C)O1 gave a remaining binding of 94% (CRK2 (Plasmodium falciparum, UniProt P61075); cell-free assay, competition with immobilised ligand; 1 µM).

Repeated from above (further values, each from its own experiment):
For Cn1nc(C(F)(F)F)cc1-c1cnc(N2CCc3cc(S(=O)(=O)Nc4c(F)cc(Cl)cc4F)cc(N4CCCC4=O)c32)nc1, the remaining binding was 100% (pknB (Mycobacterium tuberculosis, UniProt P9WI81); cell-free assay, competition with immobilised ligand; 1 µM).
